Assay results pooled from the literature.
Protocols differ between the studies behind these lines. ± marks the error that the study gave.

For `CCCCCCCCCCCCCCCC(=O)N[C@@H](CCC(=O)NCCOCCOCCC(=O)NCCOCCOCCC(=O)NCCCC[C@H](NC(=O)[C@H](CC(=O)O)NC(=O)[C@H](CC(C)C)NC(=O)[C@H](Cc1ccc(O)cc1)NC(=O)[C@H](CCCCN)NC(=O)[C@H](CO)NC(=O)[C@H](Cc1ccc(O)cc1)NC(=O)[C@H](CC(=O)O)NC(=O)[C@H](CO)NC(=O)[C@@H](NC(=O)[C@H](Cc1ccccc1)NC(=O)[C@@H](NC(=O)CNC(=O)[C@H](CCC(N)=O)NC(=O)[C@@H](CO)NC(=O)[C@@H](N)Cc1c[nH]cn1)[C@@H](C)O)[C@@H](C)O)C(=O)N[C@@H](CCCNC(=N)N)C(=O)N[C@@H](CCCNC(=N)N)C(=O)N[C@@H](C)C(=O)N[C@@H](CCC(N)=O)C(=O)N[C@@H](CC(=O)O)C(=O)N[C@@H](Cc1ccccc1)C(=O)N[C@H](C(=O)N[C@@H](CCC(N)=O)C(=O)N[C@@H](Cc1c[nH]c2ccccc12)C(=O)N[C@@H](CC(C)C)C(=O)N[C@@H](CC(C)C)C(=O)N[C@@H](CC(N)=O)C(=O)N[C@H](C(=O)NCC(=O)NCC(=O)N1CCC[C@H]1C(=O)N[C@@H](CO)C(=O)N[C@@H](CO)C(=O)NCC(=O)N[C@@H](C)C(=O)N1CCC[C@H]1C(=O)N1CCC[C@H]1C(=O)N1CCC[C@H]1C(=O)N[C@@H](CO)C(N)=O)[C@@H](C)O)C(C)C)C(=O)O`, the Cmax was 9.82 ± 4.72 ng/mL (rhesus monkey, both sexes, plasma; subcutaneous, 20 µg/kg, multiple doses, day 1).
Under “binding entropy term TΔS°”, `CC(=O)NCCN(CC(=O)NCCN(CC(=O)NCCN(CC(=O)NCCC(N)=O)C(=O)C[C@@H](N)Cc1ccccc1)C(=O)C[C@@H](N)CCCNC(=N)N)C(=O)C[C@@H](N)Cc1ccccc1` is recorded as 1.63 ± 0.12 kcal/mol (HIV-1 TAR RNA; concentration not given, 25 °C).
With `CNCc1ccc2c(c1)C[C@H](CNC(=N)N)[C@H]2NC(=O)C(=O)Nc1ccc(Cl)c(F)c1` the IC80 was 24.3 µM (Human immunodeficiency virus 1; viral infection, Env pseudovirus; TZM-bl, 6405.v4.c34 clade D).
The Cmax of `C[C@H](Nc1ncnc(N)c1C#N)c1c(-c2ccccc2)[nH]c2c(Cl)cccc2c1=O` is reported as 30.3 ± 6.03 µM (CB17 SCID mice, xenograft, plasma; oral, 50 mg/kg once daily, day 14).
The inhibition of `F[P-](F)(F)(F)(F)F.OC(Cn1cncn1)(Cn1cc(-[c-]2cccc2)nn1)c1ccc(F)cc1F.[Co+3].c1cc[cH-]c1` (racemic) is reported as 14% (Brugia pahangi; motility, Worminator; adult female; 50 µM, 3 d).
For `CCCOC(=O)N1c2cc(CNC)ccc2[C@H](NC(=O)C(=O)Nc2ccc(Cl)c(F)c2)[C@H]1CNC(=N)N`, the IC50 was 0.056 µM (env (Human immunodeficiency virus 1, UniProt Q27Q59); pseudovirus infection, luciferase reporter; TZM-bl; 48 h).
`CC(=O)NCCN(CCC(=O)NCCN(CCC(=O)NCCN(CCC(=O)NCCC(N)=O)C(=O)[C@@H](N)Cc1ccccc1)C(=O)[C@@H](N)CCCNC(=N)N)C(=O)[C@@H](N)CCCNC(=N)N`: “binding entropy term TΔS°” -5.02 ± 0.12 kcal/mol (HIV-1 TAR RNA; concentration not given, 25 °C).

Some of these lines once more:
The inhibition of `F[P-](F)(F)(F)(F)F.OC(Cn1cncn1)(Cn1cc(-[c-]2cccc2)nn1)c1ccc(F)cc1F.[Co+3].c1cc[cH-]c1` (racemic) is reported as 14% (Brugia pahangi; motility, Worminator; adult female; 50 µM, 3 d).
